Measured values gathered from unrelated publications.
Compare with care: the assays were run in different laboratories.
CDPK1: Calcium-dependent protein kinase 1 (CDPK1, Plasmodium falciparum, UniProt P62344)
UniProt P62344, sequence (whole entry, looked up): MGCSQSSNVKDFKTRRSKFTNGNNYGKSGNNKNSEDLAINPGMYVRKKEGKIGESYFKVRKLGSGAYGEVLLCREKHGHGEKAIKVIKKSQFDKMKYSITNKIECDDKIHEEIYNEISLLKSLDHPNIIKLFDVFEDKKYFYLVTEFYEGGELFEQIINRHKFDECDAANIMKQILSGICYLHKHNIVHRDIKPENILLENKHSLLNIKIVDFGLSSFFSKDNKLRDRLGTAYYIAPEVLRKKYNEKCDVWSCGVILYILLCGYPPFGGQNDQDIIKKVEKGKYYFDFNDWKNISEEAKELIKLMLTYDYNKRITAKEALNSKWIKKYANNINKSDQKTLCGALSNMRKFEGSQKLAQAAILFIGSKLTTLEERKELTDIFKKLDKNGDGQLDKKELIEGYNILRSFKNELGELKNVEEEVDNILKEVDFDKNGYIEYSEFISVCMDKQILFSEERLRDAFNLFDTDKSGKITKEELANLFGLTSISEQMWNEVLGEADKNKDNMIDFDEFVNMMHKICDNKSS
CDK19: Cyclin-dependent kinase 19 (CDK19, Homo sapiens, UniProt Q9BWU1)
UniProt Q9BWU1, sequence (whole entry, looked up): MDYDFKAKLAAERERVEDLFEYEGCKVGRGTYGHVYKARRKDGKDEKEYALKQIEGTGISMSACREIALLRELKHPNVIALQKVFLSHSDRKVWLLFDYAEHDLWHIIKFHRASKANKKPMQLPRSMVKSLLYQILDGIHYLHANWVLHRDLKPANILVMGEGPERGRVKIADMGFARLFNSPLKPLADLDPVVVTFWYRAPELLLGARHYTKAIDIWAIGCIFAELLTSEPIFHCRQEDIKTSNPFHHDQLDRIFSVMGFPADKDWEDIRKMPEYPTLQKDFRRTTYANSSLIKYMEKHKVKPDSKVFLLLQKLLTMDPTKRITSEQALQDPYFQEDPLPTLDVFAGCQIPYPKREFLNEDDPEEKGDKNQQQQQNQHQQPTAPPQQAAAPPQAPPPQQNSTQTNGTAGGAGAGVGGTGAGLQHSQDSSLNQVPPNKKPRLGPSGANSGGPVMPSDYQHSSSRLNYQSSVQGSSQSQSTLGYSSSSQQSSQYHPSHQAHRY
UniProt P54753, sequence (whole entry, looked up): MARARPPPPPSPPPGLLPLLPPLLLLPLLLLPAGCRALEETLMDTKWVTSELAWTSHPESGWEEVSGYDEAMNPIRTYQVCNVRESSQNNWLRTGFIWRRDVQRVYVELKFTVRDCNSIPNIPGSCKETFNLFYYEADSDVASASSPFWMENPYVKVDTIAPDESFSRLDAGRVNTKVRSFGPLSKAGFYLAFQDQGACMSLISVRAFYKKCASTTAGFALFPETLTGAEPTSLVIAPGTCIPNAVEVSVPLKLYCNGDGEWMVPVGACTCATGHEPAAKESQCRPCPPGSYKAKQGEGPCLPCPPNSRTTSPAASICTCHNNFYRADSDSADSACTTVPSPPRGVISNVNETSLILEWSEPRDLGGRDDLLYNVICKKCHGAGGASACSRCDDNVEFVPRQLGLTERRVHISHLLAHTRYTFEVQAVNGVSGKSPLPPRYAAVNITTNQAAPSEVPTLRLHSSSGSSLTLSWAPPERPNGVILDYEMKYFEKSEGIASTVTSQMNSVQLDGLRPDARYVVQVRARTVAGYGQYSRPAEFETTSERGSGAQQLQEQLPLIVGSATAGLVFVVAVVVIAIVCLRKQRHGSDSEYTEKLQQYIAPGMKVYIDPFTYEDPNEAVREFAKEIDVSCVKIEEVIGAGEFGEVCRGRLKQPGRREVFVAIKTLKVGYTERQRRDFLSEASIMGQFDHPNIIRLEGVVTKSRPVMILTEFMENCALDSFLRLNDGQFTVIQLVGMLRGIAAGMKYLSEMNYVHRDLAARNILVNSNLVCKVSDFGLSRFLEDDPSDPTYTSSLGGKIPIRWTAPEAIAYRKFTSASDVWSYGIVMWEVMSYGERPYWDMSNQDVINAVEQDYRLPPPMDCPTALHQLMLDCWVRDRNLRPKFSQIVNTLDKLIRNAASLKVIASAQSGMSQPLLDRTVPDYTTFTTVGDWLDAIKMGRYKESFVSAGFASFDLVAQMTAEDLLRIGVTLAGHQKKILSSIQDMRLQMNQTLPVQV
UniProt Q15746, sequence (whole entry, looked up): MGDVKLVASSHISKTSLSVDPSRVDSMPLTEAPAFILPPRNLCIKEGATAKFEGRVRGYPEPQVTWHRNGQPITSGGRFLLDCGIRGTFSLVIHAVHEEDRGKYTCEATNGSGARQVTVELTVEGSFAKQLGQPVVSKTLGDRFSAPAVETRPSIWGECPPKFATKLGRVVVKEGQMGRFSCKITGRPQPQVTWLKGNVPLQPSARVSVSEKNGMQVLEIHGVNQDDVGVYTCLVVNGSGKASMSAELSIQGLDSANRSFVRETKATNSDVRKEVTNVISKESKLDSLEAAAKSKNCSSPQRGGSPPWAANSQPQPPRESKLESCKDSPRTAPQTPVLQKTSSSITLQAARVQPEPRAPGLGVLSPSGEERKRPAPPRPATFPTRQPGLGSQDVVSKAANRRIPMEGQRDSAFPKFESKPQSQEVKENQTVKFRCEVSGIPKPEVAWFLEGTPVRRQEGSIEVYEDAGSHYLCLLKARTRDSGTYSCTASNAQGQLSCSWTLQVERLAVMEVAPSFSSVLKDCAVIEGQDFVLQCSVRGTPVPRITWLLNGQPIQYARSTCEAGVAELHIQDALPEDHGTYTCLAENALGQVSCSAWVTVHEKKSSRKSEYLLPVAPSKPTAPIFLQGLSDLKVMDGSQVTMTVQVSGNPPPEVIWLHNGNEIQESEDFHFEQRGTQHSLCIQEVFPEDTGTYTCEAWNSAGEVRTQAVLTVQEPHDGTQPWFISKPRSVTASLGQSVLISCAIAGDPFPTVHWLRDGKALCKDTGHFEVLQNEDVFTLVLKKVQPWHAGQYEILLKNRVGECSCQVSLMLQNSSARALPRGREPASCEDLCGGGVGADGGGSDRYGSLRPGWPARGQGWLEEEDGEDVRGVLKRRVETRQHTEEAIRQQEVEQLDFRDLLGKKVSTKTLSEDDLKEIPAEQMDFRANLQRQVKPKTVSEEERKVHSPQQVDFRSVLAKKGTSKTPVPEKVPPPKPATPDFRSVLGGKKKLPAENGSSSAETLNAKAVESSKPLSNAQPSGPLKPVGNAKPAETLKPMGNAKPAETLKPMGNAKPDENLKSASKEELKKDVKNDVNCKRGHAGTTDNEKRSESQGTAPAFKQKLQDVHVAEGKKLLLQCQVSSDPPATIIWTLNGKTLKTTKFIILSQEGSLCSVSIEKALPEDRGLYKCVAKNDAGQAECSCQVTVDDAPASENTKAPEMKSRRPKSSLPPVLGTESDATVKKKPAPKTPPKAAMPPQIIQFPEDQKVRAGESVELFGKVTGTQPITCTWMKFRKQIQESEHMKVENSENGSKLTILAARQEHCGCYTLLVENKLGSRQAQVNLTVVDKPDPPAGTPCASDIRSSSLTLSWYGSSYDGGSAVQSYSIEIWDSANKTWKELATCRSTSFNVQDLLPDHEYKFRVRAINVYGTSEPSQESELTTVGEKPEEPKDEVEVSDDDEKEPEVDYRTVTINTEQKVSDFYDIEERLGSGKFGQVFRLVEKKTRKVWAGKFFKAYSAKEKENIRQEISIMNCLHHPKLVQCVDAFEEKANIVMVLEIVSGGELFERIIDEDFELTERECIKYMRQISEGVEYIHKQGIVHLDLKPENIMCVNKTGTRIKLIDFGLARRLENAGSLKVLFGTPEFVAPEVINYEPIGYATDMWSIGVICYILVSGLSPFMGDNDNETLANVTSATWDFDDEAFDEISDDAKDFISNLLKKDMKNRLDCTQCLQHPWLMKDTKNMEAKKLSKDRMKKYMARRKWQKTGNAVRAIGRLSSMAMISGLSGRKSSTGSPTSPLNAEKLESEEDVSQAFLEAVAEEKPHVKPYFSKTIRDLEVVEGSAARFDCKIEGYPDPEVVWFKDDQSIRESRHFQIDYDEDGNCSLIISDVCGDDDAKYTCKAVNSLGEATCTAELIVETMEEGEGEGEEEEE
UniProt Q16816, sequence (whole entry, looked up): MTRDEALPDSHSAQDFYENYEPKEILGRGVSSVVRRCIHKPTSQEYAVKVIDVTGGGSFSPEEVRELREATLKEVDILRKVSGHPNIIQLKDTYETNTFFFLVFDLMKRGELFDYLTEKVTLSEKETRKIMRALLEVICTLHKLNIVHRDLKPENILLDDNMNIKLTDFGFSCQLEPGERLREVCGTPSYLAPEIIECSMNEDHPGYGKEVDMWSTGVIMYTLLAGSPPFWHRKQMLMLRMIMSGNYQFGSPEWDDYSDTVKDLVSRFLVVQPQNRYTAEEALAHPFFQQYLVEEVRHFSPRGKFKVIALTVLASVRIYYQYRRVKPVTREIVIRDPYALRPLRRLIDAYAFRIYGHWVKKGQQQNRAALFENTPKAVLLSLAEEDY
UniProt Q13043, sequence (whole entry, looked up): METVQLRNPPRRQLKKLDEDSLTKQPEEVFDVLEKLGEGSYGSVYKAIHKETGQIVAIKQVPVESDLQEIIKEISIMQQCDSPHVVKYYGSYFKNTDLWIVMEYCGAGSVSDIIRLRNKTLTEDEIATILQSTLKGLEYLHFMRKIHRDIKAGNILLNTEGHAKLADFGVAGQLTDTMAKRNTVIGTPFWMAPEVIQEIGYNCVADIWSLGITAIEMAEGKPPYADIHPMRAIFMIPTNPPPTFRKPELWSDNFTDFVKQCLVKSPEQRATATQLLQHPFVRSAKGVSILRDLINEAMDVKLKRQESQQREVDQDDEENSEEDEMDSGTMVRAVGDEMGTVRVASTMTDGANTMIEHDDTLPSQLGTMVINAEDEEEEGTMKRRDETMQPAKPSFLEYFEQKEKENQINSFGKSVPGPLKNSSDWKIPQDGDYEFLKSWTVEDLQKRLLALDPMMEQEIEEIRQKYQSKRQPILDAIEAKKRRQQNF

Structure (SMILES)	tested on	assay	conditions	quantity	result
COc1cc(-c2cncc3c2CN(C)Cc2cc(N4CCNCC4)ccc2-3)cc(OC)c1OC	Serine/threonine-protein kinase 4 (STK4, Homo sapiens, UniProt Q13043)	enzyme activity, inhibitor	1 µM	remaining activity	97%
COc1ccc2oc(-c3ccc4nc(N)oc4c3)c/c(=N\c3ccccc3NC(=O)CCN)c2c1	Tyrosine-protein kinase JAK1, JH1 (JAK1, Homo sapiens, UniProt P23458)	binding	1 µM	remaining binding	96%
C=CC(=O)N1CCC(COCC(=O)N2CCN(c3nc(-c4cnc(N)nc4C(F)F)nc(N4CCOC[C@@H]4C)n3)CC2)CC1	Eukaryotic translation initiation factor 2-alpha kinase 1 (EIF2AK1, Homo sapiens, UniProt Q9BQI3)	binding, competition with immobilised ligand	1 µM	remaining binding	81%
CN(CCCC(F)(F)F)c1nccc(-c2cnn3ncccc23)n1	CDPK1	binding	1 µM	remaining binding	98%
CCCCC(=O)Nc1ccc(-c2ccc3ncn(CCC)c(=O)c3c2)cn1	Cyclin-dependent kinase 11B (CDK11B, Homo sapiens, UniProt P21127)	binding, competition with immobilised ligand	0.5 µM	remaining binding	100%
CN(c1nccc(-c2cnn3ncccc23)n1)C1CC1	CDK19	binding	1 µM	remaining binding	100%
C[C@@H](c1ccc(-n2cnc3c(N)ncnc32)cc1)N1CCc2nn(C)c(Cc3ccccc3)c2C1=O	CDPK1	binding, competition with immobilised ligand	0.1 µM	remaining binding	8.9%
Cc1noc(NS(=O)(=O)c2ccc(N=NN(C)O)cc2)c1C		DPPH scavenging, absorbance	60 µg/mL	inhibition	11.1%
C1=C/COCc2cc(ccc2OCCN2CCCC2)Nc2nccc(n2)-c2cccc(c2)COC/1	Ephrin type-B receptor 3 (EPHB3, Homo sapiens, UniProt P54753)	binding	0.1 µM	remaining binding	100%
CCCN(O)N=Nc1ccc(S(=O)(=O)Nc2nccs2)cc1		DPPH scavenging, absorbance	120 µg/mL	inhibition	14.1%
N[C@H]1CCN(c2nccc(-c3cnn4ncccc34)n2)C1	CDK19	binding	1 µM	remaining binding	100%
FC(F)(F)Oc1cccc(-c2cnc3ccc(-c4ccncc4)nn23)c1	Myosin light chain kinase, smooth muscle (MYLK, Homo sapiens, UniProt Q15746)	cell-free assay, competition with immobilised ligand	5 µM	remaining binding	40%
Cc1cc([C@@H](C)Nc2ccccc2C(=O)O)c2nc(N3CCC(F)(F)CC3)c(C#N)c(=O)n2c1	Mitogen-activated protein kinase 14 (MAPK14, Homo sapiens, UniProt Q16539)	binding, competition with immobilised ligand	1 µM	remaining binding	82%
c1cnn2ncc(-c3ccnc(N4CCC45COC5)n3)c2c1	Transient receptor potential cation channel subfamily M member 6 (TRPM6, Homo sapiens, UniProt Q9BX84)	binding	1 µM	remaining binding	80%
Cc1cc(S(=O)(=O)N[C@H]2CC[C@H](CN3CCN(c4ccc(C5CCC(=O)NC5=O)cc4F)CC3)CC2)ccc1Nc1ncc(C(F)(F)F)c(N2CCC[C@](C)(O)C2)n1 (some centres unmarked)	Mitogen-activated protein kinase 7 (MAPK7, Homo sapiens, UniProt Q13164)	binding, competition with immobilised ligand	1 µM	remaining binding	4%
CNc1ncc2c(/C=C/C(=O)N3CCC(OC)CC3)nn(Cc3cccc(C(F)(F)F)c3)c2n1	Phosphorylase b kinase gamma catalytic chain, skeletal muscle/heart isoform (PHKG1, Homo sapiens, UniProt Q16816)	enzyme activity, inhibitor, radiometric	1 µM	remaining activity	93%
Nc1ncnc2occ(-c3ccc(NC(=O)Nc4cc(C(F)(F)F)ccc4F)cc3)c12	Receptor-type tyrosine-protein kinase FLT3 (FLT3, Homo sapiens, UniProt P36888, D835Y)	cell-free assay, inhibitor	20 µM	remaining signal	5.7%

Repeated from above:
Structure (SMILES)	tested on	assay	conditions	quantity	result
C=CC(=O)N1CCC(COCC(=O)N2CCN(c3nc(-c4cnc(N)nc4C(F)F)nc(N4CCOC[C@@H]4C)n3)CC2)CC1	Eukaryotic translation initiation factor 2-alpha kinase 1 (EIF2AK1, Homo sapiens, UniProt Q9BQI3)	binding, competition with immobilised ligand	1 µM	remaining binding	81%
CN(CCCC(F)(F)F)c1nccc(-c2cnn3ncccc23)n1	CDPK1	binding	1 µM	remaining binding	98%
